# Results pooled from the literature.
# Every numbered part comes from another study and shows a few of its results, in no order. Substitutions count along the parent as printed.

# Sample 1
# Target: RNA binding protein fox-1 homolog 2, RRM domain, GST-SBP tag (RBFOX2, Homo sapiens, UniProt O43251-10, residues 100-194)
# Method: RNA Bind-n-Seq
# Molecule type: RNA
# Matrix: in vitro
# Concentration: 365 nM
# Setting: natural RNA segment, single round, ends assumed
# Relative to: no-protein control
# Reading: higher = stronger binding
# Shared flanks, not repeated: GGGAGUUCUACAGUCCGACGAUC … UGGAAUUCUCGGGUGCCAA
# Target sequence (chain): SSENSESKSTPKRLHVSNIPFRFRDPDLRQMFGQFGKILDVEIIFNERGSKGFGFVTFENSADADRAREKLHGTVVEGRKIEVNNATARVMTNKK
Oligonucleotide,RBNS enrichment (R)
CAGGAGAGGCCCAGGCCACCAUGGGCUUUGAGUCAUCCAAACAGCUCUACUGCUGUCCUACAAUACAUGAGGUGACUUCCGGCCAUGCUGCCCACUGUUGGCGGCUCUGU,0.232
CAGGCCAGCCUCUCACUCCCAAGCCAUAGUCCUACUCCCAUGGGAAAGGAGGUCUUCUCUCUGCCCUGGAGGAGGACAUAUAGCUGAUUUCUGUUCUUUUAACUCUUAAA,0.448
UCCCUGAGCCUUCUUCCUGCCCUGGGUAGGAAGUGUGGCUCUGGGUCUGUGGUCACUCUCCACCUUGUCCUAGUGUUGCCAUGGUAGCAUGGCUUUGUAGUUUGCAUUUA,0.848
CGUGUGUAUUAUUUAAUGUCACUAUUGGUUAGUGGCCAUUUUUCAGAACUGAAGAUGGAAUGGCCUGACCAGCUAUUAAGAACGUGGGGAGACGCAGAAAUUGUGGUAAA,0.397
UGUGCGUGCCAGCGAAGGCUGCUGUGGGCGUGUGUGUCAAGUGGGCCACGCGUGCAGGGUGUGUGUCCACGAGCGACGAUCGUGGUGGCCCCAGCGGCCUGGGCGUUGGC,1.13
GAGGCAGAGCCUGAUGACGAUCAUUUUUCCAUUGGCGUGAGCUCCCGCCUGGAUGGACUGAGGAAUCGUGGGCCAGGCUGCACCUGGGAUUCCUUGCGGAAUUCUGUGGG,0.579
ACAAAAAUUAUGCAGAAAAAUUCAUUUGAAUAUCCAUCACUUAAAUGGUGACAAUAACAACUUCAGAGAUCUGUGAUGAUCAUUUAAAUGGAGUACUCAUCUUCUCAUAG,0.471
UCGGCUUCUGGAGUGAAACAGCAAACCCCAAAUCUUCAAAGUUGGAAGGAACUUUAAAAAUCAUCCGGUCCAAUCUCUUUCCUCUUUCUGCCACCUCCCAAGGCAGAAAU,0.411

# Sample 2
# Target: ABI1, truncated, D143A, DHFR fusion (Arabidopsis thaliana)
# Method: DHFR PCA, deep sequencing
# Matrix: yeast
# Setting: methotrexate growth selection, single substitutions
# Together with: (+)-ABA 710 µM
# Relative to: wild-type fitted maximum
# Reading: higher = stronger binding
# Starting sequence: PYL1, truncated, DHFR fusion (Arabidopsis thaliana); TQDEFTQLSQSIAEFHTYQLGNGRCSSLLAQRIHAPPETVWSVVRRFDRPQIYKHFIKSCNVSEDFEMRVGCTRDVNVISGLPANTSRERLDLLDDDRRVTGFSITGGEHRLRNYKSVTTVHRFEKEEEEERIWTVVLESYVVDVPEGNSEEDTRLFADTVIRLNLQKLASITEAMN
Substitution,relative binding score [%]
V62Q,80.8
F124N,98.5
L20V,108
V40M,-30
E129K,107
L164R,102
R163Q,96.8
D153W,-1.28
D3K,103
L20T,101
D159W,21.3
E109T,108

# Sample 3
# Target: Histone acetyltransferase KAT6A, winged helix 2, GST fusion (KAT6A, Homo sapiens, UniProt Q92794, residues 85-181)
# Method: protein binding microarray
# Molecule type: double-stranded DNA, one strand shown
# Matrix: in vitro
# Concentration: not given
# Setting: 8-mer, flanks averaged, mean of 2 arrays, mostly near background
# Relative to: not given
# Reading: higher = stronger binding
# Target sequence (chain): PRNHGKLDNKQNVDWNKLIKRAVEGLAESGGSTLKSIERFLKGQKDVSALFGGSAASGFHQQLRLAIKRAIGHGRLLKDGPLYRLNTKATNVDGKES
Oligonucleotide,E-score
CGTATTCA,0.0301
ACCGTAAG,-0.0795
CGCCGCGA,0.206
CCCTCGAG,-0.102
CGTGGTTC,-0.0847
GCTTTTAC,0.0175
ACAGAGGC,-0.00167
GGACCTCA,-0.0855
GACGATCC,0.0182
ACTTATAT,0.0521
GTCGAAAC,0.124
AATCGGGG,-0.159
TGCAACAA,0.0708

# Sample 4
# Target: Fragile X messenger ribonucleoprotein 1, C-terminal low-complexity region (Fmr1, Mus musculus, UniProt P35922)
# Method: RNA Bind-n-Seq
# Molecule type: RNA
# Matrix: in vitro
# Concentration: 200 nM
# Setting: whole 134-nt RNA, ends assumed
# Together with: 150 mM KCl
# Relative to: input library
# Reading: higher = stronger binding
# Shared flanks, not repeated: GGGAGUUCUACAGUCCGACGAUC … UGGAAUUCUCGGGUGUCAAGG
Oligonucleotide,log2 enrichment
CCUCAAGUCCUGUGCUACACAUCGUAUGUACCGAAUCGGGCGGGCGGGGCGGGAAAGUAUUAUGUUACGCCGUUCGGAUCUGCACUUCCA,1.28
ACCAUGCAGGUGGGCAUCUUUGGGAAGUGGGGCAAGGGGGGGAUAGGGAGGGGGGUAACACUUUGGCAACAGGUGGUCCCAGGUCGUUUC,0.617
UAACUUUAGAGGAGGAUCUGAUGGAUAUGGCAGUGGACGUGGAUUUGGGGAUAGCUAUAAUGGGUAUGGAGGAGGACCUGGAGGUGGCAA,0.419
CCUGUGCUACACAUCGUAUGUACCGAAUCGGGGUUUUUGGGGUUUUUGGGGAAAAAGGGGAAAGUAUUAUGUUACGCCGUUCGGAUCUGC,0.253
CCUCAAGUCCUGUGCUACACAUCGUAUGUACCGAAUCGGGGUGGGUGGUGGGGAAAGUAUUAUGUUACGCCGUUCGGAUCUGCACUUCCA,1.21

# Sample 5
# Target: CCNB3, cyclin fold, Cln2 fusion (human)
# Method: yeast growth competition, sequencing
# Matrix: yeast
# Setting: strong parent motif
# Relative to: not given
# Reading: higher = stronger binding
# Starting sequence: SCAPER docking peptide (human); SNARRSLNFGGST
Substitution,normalised enrichment score
G10A,1.43
L7C,0.406
S6Y,0.727
S1D,1.29
S1P,1.13
F9W,1.26
S1Q,1.4
G10E,1.52
S1V,1.89
A3K,-0.01
F9G,-0.00493
F9N,-0.291
G11L,0.984
S12V,1.09

# Repeated from above (sample 2):
Substitution,relative binding score [%]
V62Q,80.8
F124N,98.5
L20V,108
V40M,-30
E129K,107
L164R,102
R163Q,96.8
D153W,-1.28
D3K,103
